Results gathered from unrelated publications.
A part holds a random share of what one study measured.

Set 1 — mode: inhibitor; concentration: 20 µM
Target: Replicase polyprotein 1ab, nsp13 helicase (rep, Severe acute respiratory syndrome coronavirus 2, UniProt P0DTD1)
For `NC(=O)NCCN1CCN(c2cccc(C(F)(F)F)c2)CC1`, the inhibition was -1.88%.
`CCN(CC)CC1CCN(c2ncc3ncnc(Nc4ccc(F)c(Cl)c4)c3n2)CC1` has an inhibition of 14.4%.
With `NC1(Cc2ccc(Cl)cc2)CCN(c2ncnc3[nH]ccc23)CC1` the inhibition was 1.15%.
For `CC1(C)NC(=O)N(c2ccc([N+](=O)[O-])c(C(F)(F)F)c2)C1=O`, the inhibition was -3.23%.
`CC(C)COc1ccc(CNC(=O)N(Cc2ccc(F)cc2)C2CCN(C)CC2)cc1` has an inhibition of 6.55%.
`Cc1cc(C)c(NC(=O)N(Cc2ccc3c(c2)Cc2ccccc2-3)C2CCCCCC2)c(C)c1` gave an inhibition of 17.1%.
With `OC[C@H]1O[C@@H](n2cnc3c(N[C@H]4CCC[C@@H]4O)ncnc32)[C@H](O)[C@@H]1O` the inhibition was 2.08%.
The inhibition of `O=C(NNC(=O)c1ccc(CNS(=O)(=O)c2ccc(F)c(Cl)c2)cc1)c1ccccc1` is reported as -1.46%.
`N[C@H]1C[C@@H]1c1ccc(-c2cccc(O)c2)cc1` has an inhibition of 9.09%.
For `COc1cc2ncnc(Nc3ccc(Oc4ccccc4)cc3)c2cc1OC`, the inhibition was 3.52%.
The inhibition of `c1ccc(Oc2nc(NC3CCCCC3)c3[nH]cnc3n2)cc1` is reported as -2.2%.
`CC(NC(C)(C)C)C(=O)c1cccc(Cl)c1` (centres unmarked) gave an inhibition of 6.82%.
`CC(C)(C)c1cc(NC(=O)Nc2ccc(-c3cn4c(n3)sc3cc(OCCN5CCOCC5)ccc34)cc2)no1` gave an inhibition of 8.17%.
`Nc1ccc(S(N)(=O)=O)cc1` has an inhibition of 1.14%.
The inhibition of `CCOc1nc2cccc(C(=O)OCc3oc(=O)oc3C)c2n1Cc1ccc(-c2ccccc2-c2noc(=O)[nH]2)cc1` is reported as 3.68%.
The inhibition of `CCN1CCN(c2cc(-c3ccc(F)cc3)c3c(n2)CCCCCC3)CC1` is reported as 2.46%.
The inhibition of `O=C(O)Cc1cccc2c(=O)cc(-c3ccccc3)oc12` is reported as 0.27%.
The inhibition of `COCC(=O)O[C@]1(CCN(C)CCCc2nc3ccccc3[nH]2)CCc2cc(F)ccc2[C@@H]1C(C)C` is reported as 5.48%.
For `O=C(O)[C@@H](c1ccc(OCc2ccc3ccccc3n2)cc1)C1CCCC1`, the inhibition was 7.28%.
With `O=C(O)CCCN1CCC(O[C@@H](c2ccc(Cl)cc2)c2ccccn2)CC1` the inhibition was -2.87%.
With `NC(=O)c1cn(Cc2c(F)cccc2F)nn1` the inhibition was 6.35%.
`CC(=O)[C@H]1CC[C@H]2[C@@H]3CC=C4C[C@@H](OC(=O)CCC(=O)O)CC[C@]4(C)[C@H]3CC[C@]12C` gave an inhibition of 3.58%.

Set 2 — effect on: enzyme activity; mode: inhibitor; concentration: 10 µM
Target: Replicase polyprotein 1ab, 3C-like proteinase (rep, Middle East respiratory syndrome-related coronavirus, UniProt K9N7C7)
`N#CSc1cc(SC#N)c(N)nc1N` has an inhibition of 100%.
`CN1CC[C@@]2(C)c3cc(O)ccc3N(C)[C@@H]12` has an inhibition of 41%.
`CCCCCCCCCCCCCCCCCC[S+](CCC)c1ccccc1C(=O)OCC` (centres unmarked) has an inhibition of 21%.

Set 3 — method: protein binding microarray; molecule type: double-stranded DNA, one strand shown; medium: in vitro; concentration: not given; baseline: not given; direction: higher = stronger binding
Target: Histone acetyltransferase KAT6A, winged helix 1, GST fusion (KAT6A, Homo sapiens, UniProt Q92794, residues 1-85)
Setting: 8-mer, flanks averaged, mean of 2 arrays, mostly near background
Construct (chain): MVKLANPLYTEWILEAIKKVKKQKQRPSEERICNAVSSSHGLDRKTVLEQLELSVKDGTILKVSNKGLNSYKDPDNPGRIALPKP
`AATGAATG` has an E-score of -0.254.
For `GAACTATC`, the E-score was -0.12.
For `CATAAATC`, the E-score was -0.0313.
`CGCGCCAC` has an E-score of 0.314.
`GTGCTTCA` has an E-score of -0.204.
The E-score of `GCCCCAAC` is reported as -0.233.
`ACGTACCC` gave an E-score of 0.157.
`CCAACCAA` has an E-score of -0.134.

Set 4 — cell line: HEK-293T; effect on: pseudovirus infection; organism: VSV pseudotyped with SARS-CoV-2 spike; concentration: 10 µM; time: 16 h; baseline: vehicle-treated
With `NCCCNCCSP(=O)(O)O` the GFP-positive cells was 77.7%.
For `CN1CCC(=C2c3ccccc3CCc3cccnc32)CC1`, the GFP-positive cells was 62.9%.
The GFP-positive cells of `CNCC(O)c1ccc(OC(=O)C(C)(C)C)c(OC(=O)C(C)(C)C)c1` (centres unmarked) is reported as 61.3%.

Set 5 — method: protein-binding microarray; molecule type: double-stranded DNA, one strand shown; medium: in vitro; concentration: 2200 nM top; setting: 60-bp whole probe; together with: salmon DNA 0.4 mg/ml; baseline: random background probes; direction: higher = stronger binding; shared flanks, not repeated: GCCTAGCAC … GTCTTGATTCGCTTGACGCTGCTG
Target: Interferon regulatory factor 7, full length, phosphomimetic (IRF7, Homo sapiens, UniProt Q92985, residues 1-503, S471D/S472D/S475D/S476D/S477D/S483D/S484D/S487D)
Target sequence (chain): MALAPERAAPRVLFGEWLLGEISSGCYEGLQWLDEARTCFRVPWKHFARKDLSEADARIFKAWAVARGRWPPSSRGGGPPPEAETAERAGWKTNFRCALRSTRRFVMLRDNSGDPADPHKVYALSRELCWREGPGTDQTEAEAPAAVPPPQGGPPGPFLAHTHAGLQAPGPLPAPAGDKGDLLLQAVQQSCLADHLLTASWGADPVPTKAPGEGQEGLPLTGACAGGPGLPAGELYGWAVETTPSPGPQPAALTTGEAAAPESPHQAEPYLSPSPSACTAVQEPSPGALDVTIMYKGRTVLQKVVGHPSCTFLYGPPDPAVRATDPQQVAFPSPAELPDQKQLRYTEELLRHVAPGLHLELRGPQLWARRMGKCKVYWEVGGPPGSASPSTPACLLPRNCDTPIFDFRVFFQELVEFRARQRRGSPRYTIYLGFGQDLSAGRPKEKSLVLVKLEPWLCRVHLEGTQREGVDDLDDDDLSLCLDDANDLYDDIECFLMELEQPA
`GACGATTTCACTCTCGAGACGTGCTAG`: “fitted relative affinity” 1.51 z-score.
`TTAGGTTTCGGGTTTCGGTAAGTGCTA`: “fitted relative affinity” 9.19 z-score.
For `GACCATATCGGGACTGGAGACGTGCTA`, “fitted relative affinity” read -0.362 z-score.
`TTAGGTTTACTTCTCCTTTAGTGCTAG` — result for “fitted relative affinity”: 1.43 z-score.
Under “fitted relative affinity”, `TCATTTCTGTTGTCTGTGACTGTGCTA` is recorded as 2.54 z-score.
`TTAGATATCAGTTTCGTTTAGTGCTAG`: “fitted relative affinity” 6.59 z-score.
`GACGTTTTCAGTTTCGAGACGTGCTAG`: “fitted relative affinity” 6.74 z-score.
`TTAGGTTTCGGACGGGGTTAGTGCTAG`: “fitted relative affinity” 2.09 z-score.

Some of these lines once more (set 5):
`TTAGGTTTACTTCTCCTTTAGTGCTAG` — result for “fitted relative affinity”: 1.43 z-score.
Under “fitted relative affinity”, `TCATTTCTGTTGTCTGTGACTGTGCTA` is recorded as 2.54 z-score.
`TTAGATATCAGTTTCGTTTAGTGCTAG`: “fitted relative affinity” 6.59 z-score.
`GACGTTTTCAGTTTCGAGACGTGCTAG`: “fitted relative affinity” 6.74 z-score.
`TTAGGTTTCGGACGGGGTTAGTGCTAG`: “fitted relative affinity” 2.09 z-score.
